{"data": "Measurements of several laboratories", "note": "Numbered parts are unrelated; each lists some results of a single study."}
{"data": "Block 1", "target": "D(3) dopamine receptor (DRD3, Homo sapiens, UniProt P35462)", "effect on": "ligand displacement", "concentration": "10 µM", "chain of UniProt P35462 (whole entry, looked up)": "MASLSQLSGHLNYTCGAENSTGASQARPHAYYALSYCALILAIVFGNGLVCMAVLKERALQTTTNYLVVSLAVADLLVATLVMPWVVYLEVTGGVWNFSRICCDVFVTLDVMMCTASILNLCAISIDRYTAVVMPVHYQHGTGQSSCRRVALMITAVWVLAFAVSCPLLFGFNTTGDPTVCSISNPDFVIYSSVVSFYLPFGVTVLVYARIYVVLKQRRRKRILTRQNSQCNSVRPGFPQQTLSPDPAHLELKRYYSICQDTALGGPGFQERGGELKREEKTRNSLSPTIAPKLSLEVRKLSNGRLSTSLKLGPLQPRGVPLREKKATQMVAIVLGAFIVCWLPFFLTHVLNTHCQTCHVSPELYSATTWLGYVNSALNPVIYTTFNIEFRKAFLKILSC"}
{"Structure (SMILES)": "CO[C@H]1CC[C@H](CNc2ccc(S(=O)(=O)NC(=O)c3ccc(N4CCN(CC5=C(c6ccc(Cl)cc6)CC(C)(C)CC5)CC4)cc3Oc3cnc4[nH]ccc4c3)cc2[N+](=O)[O-])CC1", "inhibition [%]": -14.1}
{"Structure (SMILES)": "CNC(=N)NCCC[C@H](NC(=O)[C@H](CC(C)C)NC(=O)NNC(=O)[C@H](Cc1ccccc1)NC(=O)[C@H](CO)NC(=O)[C@H](CC(N)=O)NC(=O)[C@@H](Cc1ccncc1)NC(=O)[C@H](N)Cc1ccc(O)cc1)C(=O)N[C@@H](Cc1ccccc1)C(N)=O", "inhibition [%]": -8.85}
{"Structure (SMILES)": "Nc1nc(NCc2ccccc2)nc(-c2cccc(CO)c2)n1", "inhibition [%]": 8.38}
{"Structure (SMILES)": "C[C@H](c1ccc(F)cc1)N(Cc1cccc(C(=O)O)c1)C(=O)c1cnc2ccccc2c1", "inhibition [%]": -8.16}
{"Structure (SMILES)": "CC1CCN(c2ccnc(NCc3cn(C)cn3)n2)CC1", "inhibition [%]": 47}
{"Structure (SMILES)": "CCc1ccccc1C(=O)Nc1n[nH]c2c(C)c(F)c(C3C(C#N)=C(C)N(C)C(C)=C3C#N)cc12", "inhibition [%]": 10.4}
{"Structure (SMILES)": "Cc1c(NC(=O)c2cc(C(N)=O)nc3cc(F)ccc23)c(C(F)(F)F)nn1Cc1ccc(C#N)cc1", "inhibition [%]": 1.46}
{"Structure (SMILES)": "CC1=C(C#N)C(c2ccc3[nH]nc(C)c3c2)C(C#N)=C(C)N1", "inhibition [%]": 18.1}
{"Structure (SMILES)": "CN1CCN(c2ccnc(NCCc3ccccc3)n2)CC1", "inhibition [%]": 22.6}
{"Structure (SMILES)": "CC[C@H](CC(=O)O)n1c(=O)c2ncccc2n(Cc2cn(C)c3cc(C)cc(C)c23)c1=O", "inhibition [%]": 11.1}
{"Structure (SMILES)": "CN(C)CC#Cc1ccc(OCCCc2sc(N3CCc4cccc(C(=O)Nc5nc6ccccc6s5)c4C3)nc2C(=O)O)c(F)c1", "inhibition [%]": 2.01}
{"data": "Block 2", "target": "cGMP-dependent protein kinase 1, isoform beta (PRKG1, Homo sapiens, UniProt Q13976)", "effect on": "enzyme activity", "mode": "inhibitor", "concentration": "0.5 µM", "baseline": "control", "chain of UniProt Q13976 (whole entry, looked up)": "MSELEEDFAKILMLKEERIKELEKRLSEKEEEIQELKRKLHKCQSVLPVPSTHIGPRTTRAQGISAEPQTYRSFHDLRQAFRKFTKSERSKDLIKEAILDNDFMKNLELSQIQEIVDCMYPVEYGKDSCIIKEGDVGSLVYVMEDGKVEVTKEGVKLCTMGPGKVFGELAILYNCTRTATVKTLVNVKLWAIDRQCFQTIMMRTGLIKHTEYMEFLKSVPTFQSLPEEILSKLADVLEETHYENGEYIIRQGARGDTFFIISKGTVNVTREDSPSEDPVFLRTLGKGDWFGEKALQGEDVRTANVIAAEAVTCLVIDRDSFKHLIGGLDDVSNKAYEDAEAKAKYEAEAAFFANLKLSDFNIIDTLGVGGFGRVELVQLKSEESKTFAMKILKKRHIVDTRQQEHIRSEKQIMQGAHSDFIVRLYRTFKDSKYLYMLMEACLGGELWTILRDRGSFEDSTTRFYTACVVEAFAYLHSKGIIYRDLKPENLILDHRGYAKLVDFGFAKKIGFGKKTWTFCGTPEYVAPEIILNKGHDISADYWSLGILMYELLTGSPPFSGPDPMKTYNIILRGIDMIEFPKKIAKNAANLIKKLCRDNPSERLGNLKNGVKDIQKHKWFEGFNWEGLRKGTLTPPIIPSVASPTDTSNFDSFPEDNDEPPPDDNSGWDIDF"}
{"Compound": "CCN(CC)CCNC(=O)c1c(C)[nH]c(/C=C2\\C(=O)Nc3ccc(F)cc32)c1C", "remaining activity [%]": 88.8}
{"Compound": "CN([C@@H](Cc1ccc(OS(=O)(=O)c2cccc3cnccc23)cc1)C(=O)N1CCN(c2ccccc2)CC1)S(=O)(=O)c1cccc2cnccc12", "remaining activity [%]": 84.2}
{"Compound": "CN(C)C[C@H]1CCn2c(c(C3=C(c4cn(C)c5ccccc45)C(=O)NC3=O)c3ccccc32)C1", "remaining activity [%]": 88.8}
{"Compound": "Cn1nc2c3c(cccc31)C(=O)c1ccccc1-2", "remaining activity [%]": 93.7}
{"Compound": "O=C1Nc2ccc(Cl)cc2C1=Cc1cc(Cl)c(O)c(Cl)c1", "remaining activity [%]": 102}
{"Compound": "c1ccc(-c2[nH]ncc2-c2ccnc3ccccc23)nc1", "remaining activity [%]": 86}
{"Compound": "O=C(Nc1cccc(Nc2nccc(Nc3cccc(C(F)(F)F)c3)n2)c1)C1CC1", "remaining activity [%]": 97.6}
{"Compound": "CCN(CC)CCNC(=O)c1c(C)[nH]c(/C=C2\\C(=O)Nc3ccc(Cl)cc32)c1C", "remaining activity [%]": 76.4}
{"data": "Block 3", "organism": "Sarcocystis neurona", "effect on": "parasite growth", "concentration": "10 µM", "notes": "second screen"}
{"SMILES": "C[C@]12CC[C@@H]3c4ccc(O)cc4CC[C@H]3[C@@H]1CC[C@@H]2O", "inhibition": "-71.5%"}
{"SMILES": "Cl.Nc1nc2ccc(OC(F)(F)F)cc2s1", "inhibition": "-343%"}
{"SMILES": "CCCN[C@H]1CCc2nc(N)sc2C1.Cl", "inhibition": "-65.5%"}
{"data": "Further values, each from its own experiment"}
{"SMILES": "CC(C)n1cnc(-c2ccc(F)cc2)c1-c1ncc(C(=O)Nc2ccc(N3CCN(C)CC3)cc2)[nH]1", "host": "human, idiopathic pulmonary fibrosis", "dose": "60 mg once daily", "notes": "trial, treatment-emergent", "quantity": "patients with Proteinuria", "result": "0%"}
{"note": "Repeated from above (block 1):"}
{"Structure (SMILES)": "CNC(=N)NCCC[C@H](NC(=O)[C@H](CC(C)C)NC(=O)NNC(=O)[C@H](Cc1ccccc1)NC(=O)[C@H](CO)NC(=O)[C@H](CC(N)=O)NC(=O)[C@@H](Cc1ccncc1)NC(=O)[C@H](N)Cc1ccc(O)cc1)C(=O)N[C@@H](Cc1ccccc1)C(N)=O", "inhibition [%]": -8.85}
{"Structure (SMILES)": "Nc1nc(NCc2ccccc2)nc(-c2cccc(CO)c2)n1", "inhibition [%]": 8.38}
